Measurements of several laboratories.
Numbered parts are unrelated; each lists some results of a single study. Changes are numbered by the printed parent chain.

Sample 1 — method: protein-binding microarray; molecule type: double-stranded DNA, one strand shown; medium: in vitro; tested at: 940 nM top; notes: 60-bp whole probe; together with: salmon DNA 0.4 mg/ml; relative to: random background probes; direction: higher = stronger binding; shared flanks, not repeated: GCCTAGCAC … GTCTTGATTCGCTTGACGCTGCTG
Target: Interferon regulatory factor 5, full length, phosphomimetic (IRF5, Homo sapiens, UniProt Q13568-2, residues 1-514, S451D/S453D/S456D/S462D)
| Oligonucleotide | fitted relative affinity [z-score] |
| --- | --- |
| TCACCTCTGGGCTGTTTGACTGTGCTA | 0.0192 |
| GACGGACTGGGTATCGGGGCGTGCTAG | 0.504 |
| GGTTTTCTCTATTGCTTTCTGTGCTAG | 3.16 |
| GACGAACTGAGTATCGAGAGGTGCTAG | 1.32 |
| TCAATACTGATTTCCACACTGTGCTAG | 0.55 |
| GACGATCTCAGTAACGAGACGTGCTAG | 0.0896 |
| GAAGGTTTCGACTTTCGGGACGTGCTA | 6.48 |
| TTAGGTTTCAACTATCGGTTAGTGCTA | 3.74 |
| TTCGGTATCGGACTGGGTTAGTGCTAG | 3.32 |
| TTAGATATCATACTGGATTAGTGCTAG | -0.343 |
| CTGTTTCCATCTCTCAAAAGGTGCTAG | 2.18 |
| GACGATATCAGTTTCGAGAGGTGCTAG | 3.53 |
| TTGCTTCTATAGGCTAGAATCGTGCTA | -0.636 |
| TTAGATCACAGTATCGATTAGTGCTAG | 3.73 |
| TGAGATTTCGGGTTTCGATTAGTGCTA | 5.76 |
| GCTCCAGGAAGCCTTGCCTGGTGCTAG | -0.565 |
| TTAGGTATCGTGTTTCGGTTAGTGCTA | 5.23 |
| GACGGTACCGGGTATCGGGACGTGCTA | 0.842 |
| TTAGGTTTCGGTCTCCGTTAGTGCTAG | 15.9 |
| TTAGGACTGGGGTTTCGGATAGTGCTA | 2.14 |
| TTAGGACTGCTAATGCTTTAGTGCTAG | -0.507 |
| GACGGTCTCCTAATGCTGACGTGCTAG | -0.183 |
| TTAGGTATCGGAATGGGTTAGTGCTAG | 4.48 |
| GACGATCTCAGACTGGAGGCGTGCTAG | -0.534 |
| TTAGGACTGGGATTCGGTTAGTGCTAG | -0.0838 |

Sample 2 — target: CCND1, cyclin fold, Cln2 fusion (human); method: yeast growth competition, sequencing; medium: yeast; notes: weak parent motif; relative to: not given; direction: higher = stronger binding
Parent: WEE1 docking peptide (human); HKTFRKLRLFDTP; partner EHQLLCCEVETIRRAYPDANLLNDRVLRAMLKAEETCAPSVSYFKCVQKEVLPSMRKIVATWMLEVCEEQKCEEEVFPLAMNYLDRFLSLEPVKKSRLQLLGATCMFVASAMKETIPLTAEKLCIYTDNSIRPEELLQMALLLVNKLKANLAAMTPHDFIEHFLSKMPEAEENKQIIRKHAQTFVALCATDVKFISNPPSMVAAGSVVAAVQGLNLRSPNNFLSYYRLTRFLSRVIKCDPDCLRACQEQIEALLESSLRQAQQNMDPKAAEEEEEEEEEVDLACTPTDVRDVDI
| Variant | normalised enrichment score |
| --- | --- |
| DKTFRKLRLFDTP [H1D] | 0.548 |
| HKTFRKLRLFDTE [P13E] | -0.337 |
| HKTFRKLRLFSTP [D11S] | 0.00113 |
| HKTFRKLRLFDPP [T12P] | -0.193 |
| HKTFRKLGLFDTP [R8G] | 0.141 |
| TKTFRKLRLFDTP [H1T] | -0.291 |
| HKTFRKYRLFDTP [L7Y] | -0.0784 |
| HKTFRKLTLFDTP [R8T] | -0.0135 |
| HKTFTKLRLFDTP [R5T] | 0.413 |
| HKTFGKLRLFDTP [R5G] | -0.189 |
| HKTFRKLRLLDTP [F10L] | -0.607 |
| HKTFPKLRLFDTP [R5P] | -0.119 |
| HKTFRKLRLFKTP [D11K] | 0.539 |
| HKTFRKLRYFDTP [L9Y] | -0.0468 |
| HKTFRKLRLPDTP [F10P] | -0.209 |
| HKTFMKLRLFDTP [R5M] | 0.424 |
| HKTFRKTRLFDTP [L7T] | -0.659 |
| HKTFRELRLFDTP [K6E] | 0.0689 |
| HKAFRKLRLFDTP [T3A] | 0.194 |
| HKTFRKLRLFCTP [D11C] | 0.803 |
| HKTFRKLRLMDTP [F10M] | -0.507 |
| HKTFRKPRLFDTP [L7P] | 0.403 |
| PKTFRKLRLFDTP [H1P] | -0.263 |
| HKTFRKLRVFDTP [L9V] | -0.185 |
| HKTFRKLRIFDTP [L9I] | -0.305 |

Sample 3 — method: RNA Bind-n-Seq; molecule type: RNA; medium: in vitro; tested at: 365 nM; relative to: no-protein control; direction: higher = stronger binding
Target: RNA binding protein fox-1 homolog 2, RRM domain, GST-SBP tag (RBFOX2, Homo sapiens, UniProt O43251-10, residues 100-194)
Notes: natural RNA segment, single round, ends assumed
Target sequence (chain): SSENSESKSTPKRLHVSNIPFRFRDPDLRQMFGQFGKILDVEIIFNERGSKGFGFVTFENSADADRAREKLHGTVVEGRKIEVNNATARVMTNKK
| Oligonucleotide | RBNS enrichment (R) |
| --- | --- |
| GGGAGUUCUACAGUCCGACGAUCGGUCCAUCUUUUACAUCUGGUACACACAACAGACGCUCAGUUGUUCUUAACCACUUUUGUCAUUUGUUUUUUGGAGUAGUUUUGAAAAGUGUUUUAUAUUGAGUGCACUUUGGAAUUCUCGGGUGCCAA | 0.588 |
| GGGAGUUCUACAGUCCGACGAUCAUAAAAACACUUUCAUAGCCUCAUUCAUUCACUUAGAAGUGGUAAUAAUUUUUCCCUAAUGAUACCACUUUUCUUUUCCCCCUGUACCUAUGGGACUUCCAGAAAGAAGUUGGAAUUCUCGGGUGCCAA | 0.787 |
| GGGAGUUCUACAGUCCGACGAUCAAAUUAACACAGGAUAAUUAGUGUCACCGUUUAUUCCAAACUAGGCCAGCUGGGUUUCCAGCUUUUCUUCUACUGGUCUGAUGUUUUAUAAAUGGAAACCUGGUUUUUCUUGGAAUUCUCGGGUGCCAA | 0.313 |
| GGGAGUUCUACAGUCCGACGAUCCAUGAUCAUUUGCUCCUGCUCUAAUUUUAAUGUGCAUACAAAAAAUAUACCAAAAAUGUUAUUGUAAUUUUAAUGAGCAUGUAAAGAGUGUAUCAAAAAUUGAUGGGAUAUGGAAUUCUCGGGUGCCAA | 0.444 |
| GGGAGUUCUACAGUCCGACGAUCCUGGUGUGAGUUGGGGUAGGGUCCCCAGAGUCUCAGGAAAGAAGCUAGAUCACACUGAUUCUCCUGCCGUGGAUAUGAGUUAAAACCAAGUGGUAAAGCACUUGGAUUCAUGGAAUUCUCGGGUGCCAA | 0.378 |
| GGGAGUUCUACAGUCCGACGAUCGGCAGUGCCUACUUUGGAAGAUGCUGCAGCCUGCGAGGGGAUCUGCUGGGGCUUCCCCUUCGCCACACAGAAGCCUGCUUAGUGCUUUCUGCACCAGACAACCUGUUGAGUGGAAUUCUCGGGUGCCAA | 0.746 |
| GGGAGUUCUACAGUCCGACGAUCGAUAGCUGUCUGCUCCAGUUUCUGGUCUUUGGUAUACUCAGUGUGGCCCGGUGAUGAAGGCUUUCUACUCCUUAACAGGUACAGUUGGAUCCAUCGCUGAUGGUGUUUCUUGGAAUUCUCGGGUGCCAA | 0.511 |
| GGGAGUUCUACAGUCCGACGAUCACCCUCCUGCUCUGAGAGAAGAAAUCGAACUGAGGCUUCUUCUCUGGAGGUAAGGUUGCUGGUGGCCAGCGUAUGACAUCAAGCAGUGACAGUUUUUCACAUUUUGCUCAUGGAAUUCUCGGGUGCCAA | 0.291 |
| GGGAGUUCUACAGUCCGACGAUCCUUCUGCUGUGGGACGUGGGCCAGGCACCCUCAUUCUCUGGGCAUCUCUGCUGCAAGUGGACAAGAGUAUUUCAGAGAUCACUGAAGCCUGAGUCCAUGCACCUGCCCCAUGGAAUUCUCGGGUGCCAA | 0.348 |
| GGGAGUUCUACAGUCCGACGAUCCCUCAGAGCCUGGACUAGUUCUGAGCAUGUGUCCCUCUGUGUAUAGUGAGGAAGUGAGAGCAGAGGCUGGAAACUCAAUCCCAAGGGGAGAUCUGCCUUCCUACCCUCGGUGGAAUUCUCGGGUGCCAA | 2.58 |
| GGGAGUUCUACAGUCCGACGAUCAUCGCCUAGCGUUUGGGGAGGAACAGGGAGAGAGCUUCGGGGCGUCUGUCUCCGUGCUCUCCUGCCUCCACCGCCUUGGUUUUGCUUCCUGCUGGAGGCAGGGCACCUGCUGGAAUUCUCGGGUGCCAA | 0.225 |
| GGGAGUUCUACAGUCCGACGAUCUGCUGCAGCCGGGGUUCUAUGGCAAGUGCCAGUUGCAGGGCUAACCUUGUGCAACGUUCCCCAACACUUCCACAUACAGAAAUUAUUUUCACUCUAUCCCUGCUUCAGUUUGGAAUUCUCGGGUGCCAA | 0.415 |

Sample 4 — method: RNAcompete; molecule type: RNA; medium: in vitro; tested at: 20 nM; notes: 7-mer, probes averaged, single round; relative to: mean of 7-mers; direction: higher = stronger binding
Target: PABPC1L2, full length, GST fusion (mouse, UniProt A0ABA7IW68)
Construct (chain): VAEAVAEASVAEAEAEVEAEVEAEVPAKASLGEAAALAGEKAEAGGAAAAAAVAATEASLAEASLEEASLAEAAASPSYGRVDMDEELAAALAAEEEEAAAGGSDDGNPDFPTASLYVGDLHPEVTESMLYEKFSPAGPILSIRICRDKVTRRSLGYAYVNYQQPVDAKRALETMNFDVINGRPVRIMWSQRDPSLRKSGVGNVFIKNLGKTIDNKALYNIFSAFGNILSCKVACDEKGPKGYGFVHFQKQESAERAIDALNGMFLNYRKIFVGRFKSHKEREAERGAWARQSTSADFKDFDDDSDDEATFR
| Oligonucleotide | 7-mer Z-score |
| --- | --- |
| CUCAAGA | -0.0699 |
| CGAUUUG | -0.262 |
| CGGAAAC | -0.00289 |
| UAGACAU | -0.0301 |
| CCCAAGC | -0.22 |
| ACGUCAA | -0.161 |
| AUGAUUC | -0.0627 |
| UCCAUGU | -0.233 |
| UCUCGUC | -0.508 |
| GGCCUGA | -0.0772 |
| GUACGUG | -0.144 |
| AUAGAUG | 0.0243 |
| CUGUGCG | -0.298 |
| AGAGGCC | -0.0627 |
| UCUCUCU | -0.335 |
| CACUCUA | -0.0881 |
| CAAGUGC | -0.0464 |
| CUCUGAA | -0.0301 |
| AUUGCUC | -0.0953 |
| UUACAUC | -0.219 |
| GACGGAA | 0.131 |
| UCACCGU | -0.322 |
| CUCCUGG | -0.237 |
| CUGUCUU | -0.418 |
| GCUCGCU | -0.309 |

A few entries again (sample 3):
| Oligonucleotide | RBNS enrichment (R) |
| --- | --- |
| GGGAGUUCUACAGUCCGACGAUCCCUCAGAGCCUGGACUAGUUCUGAGCAUGUGUCCCUCUGUGUAUAGUGAGGAAGUGAGAGCAGAGGCUGGAAACUCAAUCCCAAGGGGAGAUCUGCCUUCCUACCCUCGGUGGAAUUCUCGGGUGCCAA | 2.58 |
| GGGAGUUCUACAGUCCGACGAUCCUGGUGUGAGUUGGGGUAGGGUCCCCAGAGUCUCAGGAAAGAAGCUAGAUCACACUGAUUCUCCUGCCGUGGAUAUGAGUUAAAACCAAGUGGUAAAGCACUUGGAUUCAUGGAAUUCUCGGGUGCCAA | 0.378 |
| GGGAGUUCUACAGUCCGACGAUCUGCUGCAGCCGGGGUUCUAUGGCAAGUGCCAGUUGCAGGGCUAACCUUGUGCAACGUUCCCCAACACUUCCACAUACAGAAAUUAUUUUCACUCUAUCCCUGCUUCAGUUUGGAAUUCUCGGGUGCCAA | 0.415 |
| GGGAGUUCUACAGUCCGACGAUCAUCGCCUAGCGUUUGGGGAGGAACAGGGAGAGAGCUUCGGGGCGUCUGUCUCCGUGCUCUCCUGCCUCCACCGCCUUGGUUUUGCUUCCUGCUGGAGGCAGGGCACCUGCUGGAAUUCUCGGGUGCCAA | 0.225 |
| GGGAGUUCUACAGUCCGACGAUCACCCUCCUGCUCUGAGAGAAGAAAUCGAACUGAGGCUUCUUCUCUGGAGGUAAGGUUGCUGGUGGCCAGCGUAUGACAUCAAGCAGUGACAGUUUUUCACAUUUUGCUCAUGGAAUUCUCGGGUGCCAA | 0.291 |
